Measured values from different studies.
Protocols differ between the studies behind these lines. ± marks the error that the study gave.

SMILES | assay | test system | setting | scale | measurement | value
C[C@H](NC(=O)CNC(=O)[C@H](CCC(=O)O)NC(=O)[C@H](CCC(=O)O)NC(=O)[C@H](CC(=O)O)NC(=O)[C@@H]1CCCN1C(=O)[C@H](Cc1ccccc1)NC(=O)[C@H](CS)NC(=O)[C@H](Cc1ccc(O)cc1)NC(=O)CCCNC(=O)CNC(=O)CNC(=O)[C@@H](C)NC(=O)CN)C(=O)N[C@@H](CS)C(=O)N[C@@H](Cc1ccc(O)cc1)C(N)=O [technetium-99m labelled] | radio-HPLC | human serum | 6 h, 37 °C, serum mix 1:10 v/v | – | radiochemical purity | 90.57 ± 0.67%
N=C(N)NCCC[C@@H]1NC(=O)[C@H](CC(=O)NC23CNCCNCC(N)(CNCCNC2)CNCCNC3)NC(=O)[C@@H](Cc2ccccc2)NC(=O)[C@H](CC(=O)O)NC(=O)CNC1=O [copper-64 labelled] | – | Nu/Nu mouse, male, tumour-bearing, blood | intravenous, 10 µCi, 4 h | – | tissue uptake | 0.06 ± 0.02 %ID/g
N=C(N)NCCC[C@@H]1NC(=O)[C@H](CCCCNC(=O)CCOCCOCCOCCOCCNC(=O)CC[C@H](NC(=O)CCOCCOCCOCCOCCNC(=O)CC[C@H](NC(=O)CN2CCN(CC(=O)O)CCN(CC(=O)O)CCN(CC(=O)O)CC2)C(=O)NCCOCCOCCOCCOCCC(=O)N[C@@H](CCC(=O)NCCOCCOCCOCCOCCC(=O)NCCCC[C@@H]2NC(=O)[C@@H](Cc3ccccc3)NC(=O)[C@H](CC(=O)O)NC(=O)CNC(=O)[C@H](CCCNC(=N)N)NC2=O)C(=O)NCCOCCOCCOCCOCCC(=O)NCCCC[C@@H]2NC(=O)[C@@H](Cc3ccccc3)NC(=O)[C@H](CC(=O)O)NC(=O)CNC(=O)[C@H](CCCNC(=N)N)NC2=O)C(=O)NCCOCCOCCOCCOCCC(=O)NCCCC[C@@H]2NC(=O)[C@@H](Cc3ccccc3)NC(=O)[C@H](CC(=O)O)NC(=O)CNC(=O)[C@H](CCCNC(=N)N)NC2=O)NC(=O)[C@@H](Cc2ccccc2)NC(=O)[C@H](CC(=O)O)NC(=O)CNC1=O [indium-111 labelled] | – | female athymic nude mice, heart | intravenous, 3 µCi, 4 h, U-87 MG glioma xenograft | – | tissue uptake | 0.44 ± 0.04 %ID/g
CCCC[C@H](NC(=O)CNC(=O)CNC(=O)CNC(=O)c1ccc(NN)nc1)C(=O)N[C@H]1CC(=O)NCCCC[C@@H](C(N)=O)NC(=O)[C@H](Cc2c[nH]c3ccccc23)NC(=O)[C@H](CCCNC(=N)N)NC(=O)[C@@H](Cc2ccccc2)NC(=O)[C@H](Cc2c[nH]cn2)NC1=O [technetium-99m labelled] | – | C57 mouse, B16/F1 melanoma, liver | intravenous, 2 h | – | uptake | 0.26 ± 0.03 %ID/g
N=C(N)NCCC[C@@H]1NC(=O)[C@H](CCCCNC(=O)CCOCCOCCOCCOCCNC(=O)CN2CCN(CC(=O)O)CCN(CC(=O)O)CCN(CC(=O)O)CC2)NC(=O)[C@@H](Cc2ccccc2)NC(=O)[C@H](CC(=O)O)NC(=O)CNC1=O [indium-111 labelled] | – | female athymic nude mice, spleen | intravenous, 3 µCi, 0.5 h, U-87 MG glioma xenograft | – | tissue uptake | 2.91 ± 0.51 %ID/g
CCCC[C@H](NC(=O)CNC(=O)CNC(=O)c1ccc(NN)nc1)C(=O)N[C@H]1CC(=O)NCCCC[C@@H](C(N)=O)NC(=O)[C@H](Cc2c[nH]c3ccccc23)NC(=O)[C@H](CCCNC(=N)N)NC(=O)[C@@H](Cc2ccccc2)NC(=O)[C@H](Cc2c[nH]cn2)NC1=O [technetium-99m labelled] | – | C57 mouse, B16/F1 melanoma | 2 h, with: NDP-MSH blockade | relative to: tumour over liver | uptake ratio | 0.87
CCCC[C@H](NC(=O)CCCCCCCNC(=O)c1ccc(NN)nc1)C(=O)N[C@H]1CC(=O)NCCCC[C@@H](C(N)=O)NC(=O)[C@H](Cc2c[nH]c3ccccc23)NC(=O)[C@H](CCCNC(=N)N)NC(=O)[C@@H](Cc2ccccc2)NC(=O)[C@H](Cc2c[nH]cn2)NC1=O [technetium-99m labelled] | – | C57 mouse, B16/F1 melanoma, blood | intravenous, 24 h | – | uptake | 0.09 ± 0.03 %ID/g
CC[C@H](C)[C@H](NC(=O)[C@@H](NC(=O)[C@H](CC(N)=O)NC(=O)[C@H](CCC(N)=O)NC(=O)[C@@H]1CCCN1C(=O)[C@@H](NC(=O)[C@H](Cc1ccc(O)cc1)NC(=O)CNC(=O)[C@H](Cc1ccc(O)cc1)NC(=O)[C@H](Cc1c[nH]c2ccccc12)NC(=O)[C@H](Cc1c[nH]cn1)NC(=O)[C@H](Cc1ccc(O)cc1)NC(=O)CNC(=O)CCOCCOCCOCCNC(=S)Nc1ccc(C2=[N+]3C(=C(c4ccc(OC)cc4)c4cc(Cl)c(-c5ccc(OC)cc5)n4[B-]3(F)F)C=C2Cl)cc1)[C@@H](C)O)C(C)C)C(N)=O | SPR | buffer with 4% DMSO | pH 7.5 | – | aggregation threshold | > 10 µM
N=C(N)NCCC[C@@H]1NC(=O)[C@H](CCCCNC(=O)CNC(=O)CNC(=O)CNC(=O)CC[C@H](NC(=O)CCOCCOCCOCCOCCNC(=O)CC[C@H](NC(=O)CN2CCN(CC(=O)O)CCN(CC(=O)O)CCN(CC(=O)O)CC2)C(=O)NCCOCCOCCOCCOCCC(=O)N[C@@H](CCC(=O)NCC(=O)NCC(=O)NCC(=O)NCCCC[C@@H]2NC(=O)[C@@H](Cc3ccccc3)NC(=O)[C@H](CC(=O)O)NC(=O)CNC(=O)[C@H](CCCNC(=N)N)NC2=O)C(=O)NCC(=O)NCC(=O)NCC(=O)NCCCC[C@@H]2NC(=O)[C@@H](Cc3ccccc3)NC(=O)[C@H](CC(=O)O)NC(=O)CNC(=O)[C@H](CCCNC(=N)N)NC2=O)C(=O)NCC(=O)NCC(=O)NCC(=O)NCCCC[C@@H]2NC(=O)[C@@H](Cc3ccccc3)NC(=O)[C@H](CC(=O)O)NC(=O)CNC(=O)[C@H](CCCNC(=N)N)NC2=O)NC(=O)[C@@H](Cc2ccccc2)NC(=O)[C@H](CC(=O)O)NC(=O)CNC1=O [indium-111 labelled] | – | athymic nude mice, female, U-87 MG glioma xenograft, U-87 MG tumour | intravenous, 3 µCi, 1 h | – | tissue uptake | 10.2 ± 1.61 %ID/g
CC(C)C[C@H](NC(=O)[C@H](Cc1ccc(O)cc1)NC(=O)[C@@H](CCCNC(=N)N)NC(=O)[C@@H](CO)NC(=O)[C@H](Cc1ccccc1)NC(=O)[C@H](CC1CCCCC1)NC(=O)[C@H](CC(=O)O)NC(=O)[C@H](CCC(=O)O)NC(=O)[C@H](CCC(=O)O)NC(=O)[C@H](CCC(=O)O)NC(=O)[C@H](CCC(=O)O)NC(=O)CCc1ccc(N(c2ccc(CCC(=O)O)cc2)c2ccc(-c3c4c(c(-c5ccc(N(c6ccc(CCC(=O)O)cc6)c6ccc(CCC(=O)O)cc6)cc5)c5nsnc35)N=S=N4)cc2)cc1)C(=O)N[C@@H](Cc1c[nH]c2ccccc12)C(=O)N[C@@H](CO)C(N)=O | – | nude mouse, lungs | dose not given, ex vivo, unblocked, unit not given | relative to: liver | signal intensity | 0.11
CSCC[C@H](NC(=O)[C@H](CC(C)C)NC(=O)[C@H](Cc1c[nH]cn1)NC(=O)CNC(=O)[C@@H](NC(=O)[C@H](C)NC(=O)[C@H](Cc1c[nH]c2ccccc12)NC(=O)[C@H](CCC(N)=O)NC(=O)CCCCCNC(=O)CNC(=O)CNC(=O)CNC(=O)CSC(C)=O)C(C)C)C(N)=O [technetium-99m labelled] | – | Swiss mouse, bone | intravenous, 18.5 MBq, 90 min | – | tissue uptake | 0.11 ± 0.05 %ID/g
Cc1cc(-c2ccc(NC(=O)[C@H](CCCCNC(=O)CCOCCOCCC(=O)N[C@H](Cc3ccccc3)C(=O)N[C@H]3CSSC[C@@H](C(=O)N[C@H](C(=O)O)[C@@H](C)O)NC(=O)[C@H]([C@@H](C)O)NC(=O)[C@H](CCCCN)NC(=O)[C@@H](Cc4c[nH]c5ccccc45)NC(=O)[C@H](Cc4ccc(O)cc4)NC3=O)NC(=O)CN3CCN(CC(=O)O)CCN(CC(=O)O)CCN(CC(=O)O)CC3)c(C)c2)ccc1N=Nc1ccc2c(S(=O)(=O)O)cc(S(=O)(=O)O)c(N)c2c1O [lutetium-177 labelled] | measured: subacute haematologic toxicity | patients with metastatic neuroendocrine tumours | dose not given, two cycles | – | patients with toxicity | 83%

Repeated from above:
SMILES | assay | test system | setting | scale | measurement | value
C[C@H](NC(=O)CNC(=O)[C@H](CCC(=O)O)NC(=O)[C@H](CCC(=O)O)NC(=O)[C@H](CC(=O)O)NC(=O)[C@@H]1CCCN1C(=O)[C@H](Cc1ccccc1)NC(=O)[C@H](CS)NC(=O)[C@H](Cc1ccc(O)cc1)NC(=O)CCCNC(=O)CNC(=O)CNC(=O)[C@@H](C)NC(=O)CN)C(=O)N[C@@H](CS)C(=O)N[C@@H](Cc1ccc(O)cc1)C(N)=O [technetium-99m labelled] | radio-HPLC | human serum | 6 h, 37 °C, serum mix 1:10 v/v | – | radiochemical purity | 90.57 ± 0.67%
N=C(N)NCCC[C@@H]1NC(=O)[C@H](CC(=O)NC23CNCCNCC(N)(CNCCNC2)CNCCNC3)NC(=O)[C@@H](Cc2ccccc2)NC(=O)[C@H](CC(=O)O)NC(=O)CNC1=O [copper-64 labelled] | – | Nu/Nu mouse, male, tumour-bearing, blood | intravenous, 10 µCi, 4 h | – | tissue uptake | 0.06 ± 0.02 %ID/g
